Experimental data from different studies.
Numbered parts are unrelated; each lists some results of a single study.

Series 1
Target: RNA binding protein fox-1 homolog 2, RRM domain, GST-SBP tag (RBFOX2, Homo sapiens, UniProt O43251-10, residues 100-194)
Method: RNA Bind-n-Seq
Form: RNA
Medium: in vitro
Concentration: 365 nM
Setting: natural RNA segment, single round, ends assumed
Reference: no-protein control
Reading: higher = stronger binding
Construct (chain): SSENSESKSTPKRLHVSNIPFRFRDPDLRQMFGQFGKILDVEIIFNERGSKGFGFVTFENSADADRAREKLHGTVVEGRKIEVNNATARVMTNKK
`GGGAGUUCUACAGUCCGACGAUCUCACGUUCUGGUAUUUCUGAGGUUAACACUUGAUUUAGCCCCUACAUAUCUUUCCAUAUAUCCUAUUAUUUCUGAAUAUAUGUCCUCAAAAUCCCCAUAAAUAUCCAUCCUGGAAUUCUCGGGUGCCAA`: “RBNS enrichment (R)” 0.526.
For `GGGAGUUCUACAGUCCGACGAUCAGCUCGGGGAGCCUUAGCCGCCCAUGCACUGGGGACGCUCCGCUGCCGUGCCGCCUGCACUCCUCAGGGCAGCCUCCCCCGGCUCUACGGGGGCCGCGUGGUGCCAUCCCUGGAAUUCUCGGGUGCCAA`, “RBNS enrichment (R)” read 0.196.
`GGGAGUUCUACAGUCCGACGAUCCAAACAAAAUUUAAGGCGUUUAUCCACAAGUUCUUGACUCGGGUACAGUGCGUUCCUGAGACACCCUCUUUGGGAGCACAGGCAGUUAGCUGGAAGAACUCCAAGGAAAAUGGAAUUCUCGGGUGCCAA` — result for “RBNS enrichment (R)”: 0.264.
For `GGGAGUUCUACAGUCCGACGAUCUUCAUCUUUGUAUUCUGAAGAUAAGGUUUGAAUUAAAUUGAUACACACAGAGGGGAACCGAUUUUUUUUAUCCAAUGUGAAUUAUAAAUGAGAUAAUCCACAGUUAUUCAUGGAAUUCUCGGGUGCCAA`, “RBNS enrichment (R)” read 1.29.
Under “RBNS enrichment (R)”, `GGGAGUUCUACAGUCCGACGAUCGAACUUUUUUGUAAUAUACAUGUAUGAAUUGUUCAUCGAGUUUUUAUAUUAAUUUUAAUUUGCUGCUAAGCAAAGACUAGGGACAGGCAAAGAUAAUUUAUGGCAAAGUGUGGAAUUCUCGGGUGCCAA` is recorded as 0.614.
`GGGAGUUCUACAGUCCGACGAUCGGGGUCCCAAGGUUGCCACCCACGUGCCCAGCUGUCCCACGCUGCAGCGCAGACGGCCACGCCCACACCCGGCCUUUUAGCUCAGGUCCACCAUGGGGGACGGCCCAGCGUGGAAUUCUCGGGUGCCAA` — result for “RBNS enrichment (R)”: 0.448.
`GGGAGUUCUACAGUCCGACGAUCAACAGACAGCCUUCUGACCCCUGUGCGUCUGCCACGUGCUGGGUGUGCCUUACUCAUAGGGCUCAGGCUCCUGGCCUCUGGCUUCCUGCUUCUGGAUUCUCACCUUCACAUGGAAUUCUCGGGUGCCAA` — result for “RBNS enrichment (R)”: 0.305.
For `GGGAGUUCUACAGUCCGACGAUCCAGCAUGACCAGAAUAAGACGUUCAUGAGCUUGAAGAUUUGUGUACACAGCCCUCUUUCCGUUGUCCCUGGAAUGAUACUGGCCAGAAGCUGGAGAAUAAACAGGUACUGUGGAAUUCUCGGGUGCCAA`, “RBNS enrichment (R)” read 0.608.
Under “RBNS enrichment (R)”, `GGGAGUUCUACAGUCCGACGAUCCCCCAUUCAGCCACUUUGUAUUUUACUCCUGGGUCGAUGCACCUCCGACCUUCAGCUUUUCCUAACUGCACUUACGUGGUCUGCAGCAACCUCUGCCCCCUCCUCCCAGAUGGAAUUCUCGGGUGCCAA` is recorded as 1.68.
Under “RBNS enrichment (R)”, `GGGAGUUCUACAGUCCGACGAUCUUAUGCACGGAACUCUGUUUCUAAGUGCCAAGCACAGAAAGCCGCUAAAUAAAAUCUUUGCAAUUGUUUCUGCAUGUUUGUUCAUACAGAAAAAUCAAAUAACAGCCUUGUGGAAUUCUCGGGUGCCAA` is recorded as 0.476.
`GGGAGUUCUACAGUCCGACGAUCAUAAUGUAUGAGAACUAGUUUCACAUCCUUUGAAACUAAUCUCUUUCAUUGGGGAGGAUACAACUUUUGACUUUACACAGGUGGACUUUGAAUCCAUUUUUAUAGAAUUUUGGAAUUCUCGGGUGCCAA` — result for “RBNS enrichment (R)”: 0.343.
Under “RBNS enrichment (R)”, `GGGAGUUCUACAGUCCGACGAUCAACAUAGGAAGCUUUACCUUGGGGAAGGUAUGCUUUACAAAUGUCCAGUGUAAUGAAUGUUUGGAAAAAACUGGAGUUACAGGAAAAUGAAAUCUGACUAUCUGCUAGUUUGGAAUUCUCGGGUGCCAA` is recorded as 1.74.

Series 2
Target: Prothrombin, mature alpha-thrombin (F2, Homo sapiens, UniProt P00734)
Method: aptamer microarray, sandwich
Form: DNA with 2'F-ANA
Medium: in vitro
Concentration: 200 nM
Setting: whole 15-mer aptamer, many near background
Added: Cy3 exosite-II aptamer, 400 nM
Reading: higher = stronger binding
Sequence: GGTTGGTGTGGTTGG
For `2'F-ANA at 1 2 3 4 7 8 9 12 14 15`, “mean fluorescence intensity” read 80.5 a.u.
`2'F-ANA at 1 3 8 9 15` — result for “mean fluorescence intensity”: 384 a.u.
`2'F-ANA at 3 4 5 7 11 13 14` — result for “mean fluorescence intensity”: 54.1 a.u.
For `2'F-ANA at 4 6 7 8 9 11 12 13 15`, “mean fluorescence intensity” read 277 a.u.
Under “mean fluorescence intensity”, `2'F-ANA at 1 2 3 4 5 6 10 12 13 14 15` is recorded as 63 a.u.
`2'F-ANA at 1 4 6 7 9 11 15`: “mean fluorescence intensity” 134 a.u.
`2'F-ANA at 4 7 8 9 11 15` — result for “mean fluorescence intensity”: 300 a.u.
`2'F-ANA at 2 5 6 8 9 12 13` — result for “mean fluorescence intensity”: 110 a.u.
For `2'F-ANA at 3 5 6 8 9 15`, “mean fluorescence intensity” read 109 a.u.
For `2'F-ANA at 3 4 7 9 10 11 12 13`, “mean fluorescence intensity” read 312 a.u.
`2'F-ANA at 1 3 4 5 7 8 11 12 14 15`: “mean fluorescence intensity” 50.5 a.u.
Under “mean fluorescence intensity”, `2'F-ANA at 5 11 15` is recorded as 60.1 a.u.
For `2'F-ANA at 1 3 6 8 9 14 15`, “mean fluorescence intensity” read 91.8 a.u.
`2'F-ANA at 3 10 12 13 14 15`: “mean fluorescence intensity” 408 a.u.
Under “mean fluorescence intensity”, `2'F-ANA at 1 5 6 9 10 14 15` is recorded as 53.7 a.u.
Under “mean fluorescence intensity”, `2'F-ANA at 4 5 7 10` is recorded as 43.7 a.u.

Series 3
Target: Histone acetyltransferase KAT6A, winged helix 2, GST fusion (KAT6A, Homo sapiens, UniProt Q92794, residues 85-181)
Method: protein binding microarray
Form: double-stranded DNA, one strand shown
Medium: in vitro
Concentration: not given
Setting: 8-mer, flanks averaged, mean of 2 arrays, mostly near background
Reference: not given
Reading: higher = stronger binding
Construct (chain): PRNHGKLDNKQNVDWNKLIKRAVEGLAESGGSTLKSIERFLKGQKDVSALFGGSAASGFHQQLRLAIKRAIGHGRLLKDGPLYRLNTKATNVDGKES
With `CCGCTCGA` the E-score was 0.0895.
The E-score of `AAAATTGT` is reported as -0.00554.
`GATACCCA` gave an E-score of 0.0692.
The E-score of `GTGGAGAA` is reported as 0.0432.
`AGACAACA` has an E-score of 0.00053.
For `GCGCTTTA`, the E-score was 0.169.
The E-score of `ATCGCACG` is reported as -0.0796.
For `ACCAAGAC`, the E-score was 0.00257.
For `ACCATGCG`, the E-score was 0.0529.
The E-score of `CTAGACTC` is reported as -0.383.
The E-score of `AACCGTGT` is reported as -0.0689.
`ATTCACGA` gave an E-score of -0.135.
With `ATTCCATG` the E-score was -0.16.
`ACTTCGCA` gave an E-score of -0.0772.
With `ACGAGTCT` the E-score was -0.185.
With `CACTATCG` the E-score was 0.0501.
The E-score of `AGGCACTA` is reported as 0.138.
`CCGAAGAG` has an E-score of 0.111.
`GAATCGAC` has an E-score of -0.0168.
The E-score of `CCCGCCAC` is reported as 0.124.

Series 4
Target: RING finger protein unkempt homolog, zinc fingers 1-6, GST-SBP tag (UNK, Homo sapiens, UniProt Q9C0B0, residues 30-357)
Sequence of UniProt Q9C0B0 (30-357, looked up): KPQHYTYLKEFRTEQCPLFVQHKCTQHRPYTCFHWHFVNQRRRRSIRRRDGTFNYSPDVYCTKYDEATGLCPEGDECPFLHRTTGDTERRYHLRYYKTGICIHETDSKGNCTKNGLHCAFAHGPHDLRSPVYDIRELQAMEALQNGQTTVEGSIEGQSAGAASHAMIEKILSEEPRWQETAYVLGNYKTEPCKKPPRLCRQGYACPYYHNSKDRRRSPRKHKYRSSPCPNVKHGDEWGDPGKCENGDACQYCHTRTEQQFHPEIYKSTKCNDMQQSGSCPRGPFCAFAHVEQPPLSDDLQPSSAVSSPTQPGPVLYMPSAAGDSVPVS
Method: RNA Bind-n-Seq
Form: RNA
Medium: in vitro
Concentration: not given
Setting: RNA with constant flanks, human and mouse sites, ends assumed
Reference: input RNA pool
Reading: higher = stronger binding
The bound/input enrichment of `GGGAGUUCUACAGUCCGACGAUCGUCCAGCGCCUGAAUGAACUUGAGGCAAUGACCAGAGUGAGAUUGGAUUUCUUGGAUCAACUAGCAAAAUUUUGGGAACUUCAAGGAUCUACUCUGAAGAUCCCUGUGGUAGAGAGAAAACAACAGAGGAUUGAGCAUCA` is reported as 1.18 ratio.
The bound/input enrichment of `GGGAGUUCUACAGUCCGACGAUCUUAUGUGCCUGUAUUUUUUUAAAAUGGUACACCAGAAAAGGACUGGCAGUCUACUUCUACCAUAGUUAAACUUCACCCUCUUUAAUUUCACAACAUAUUCUUUGGAAGCAGGAAGAAAUGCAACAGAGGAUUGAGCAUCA` is reported as 1.37 ratio.
`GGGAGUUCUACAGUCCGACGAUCCCGACUGACACCACCACCUACAAGAACCUGCAGCACCAUGACUACAACACAUACACCUUCCUGGACCUGAACCUGGACCUCUCCAAAUUCAGGCUGCCACAGCCGUCUUCAGGACGAGAGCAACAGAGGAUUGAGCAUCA` gave a bound/input enrichment of 0.277 ratio.
`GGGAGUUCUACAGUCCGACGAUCGAAAGGGACAGGUUCAUGCUUUGUGGAAGAAAACACAUAGGAGGGAUUUAGUAUGCAGGAAAGAGGUUUUCUACAAAUUGAGUUUUGCUUUUAUUGCCCGCAGUAGAUAGAUAUUUAGAACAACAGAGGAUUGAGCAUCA` has a bound/input enrichment of 24.1 ratio.
`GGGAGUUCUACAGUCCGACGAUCUUUAAAGAAAAUACAAAGAUGCAGUUUCUGCAGGGUGUGGCGUGGACCAGUGCUGCCGACCAUAGCUCAGAGAGCCCUGCCCCUGCCUCACUGCACUGCAGCCUCCUCGGAGGCCGCACCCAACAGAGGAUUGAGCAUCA` has a bound/input enrichment of 0.183 ratio.
For `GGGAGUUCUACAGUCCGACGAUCAGGUUUCCGGUUCCGGUGUAACGUUCGGGCUCCGUCUCAGGGGCUGAAGUUUGUGAGGUGUAGUUUUUUUGUCCCAUUGGAGCUCUCAUUCUCCAUUUUCUCCGAAAUGGCGCUGUCUAACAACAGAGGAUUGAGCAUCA`, the bound/input enrichment was 0.452 ratio.
With `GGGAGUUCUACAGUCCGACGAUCGUUCAGGGGCUUUGGAAGGGGAUGAGGAAGGAGUAGAACUCCUCCUCAGUGUUGCCUCAUUGAAACUCUGUUUAUAGUUCUUGUGAUAUGCCUUCCUAGUCUCAACUUUCAACUUACAAACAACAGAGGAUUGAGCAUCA` the bound/input enrichment was 0.753 ratio.
The bound/input enrichment of `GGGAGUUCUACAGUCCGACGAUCCUCCAGAAAAUGAUAGGAAACAUAUUUACCCAGCAGCCAAGUUACUAUACUGACCUGGAUGAAACCAUUCCCACCAUACUUCAGGUCUUCAGCAAUAUCCUCCAGCACUGUGGUUUGCAACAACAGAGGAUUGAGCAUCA` is reported as 0.852 ratio.
`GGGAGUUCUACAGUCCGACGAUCAUUAAGCUUUAUGAAAACUUCAUCAGUGAGUUUGAGCACAGGGUAAACCCUCUGUCCCUGGUAGAAAUAAUUCUCCAUGUGGUUAGACAGAUGACCGAUCCUAAUGUGGCUCUUACUUUUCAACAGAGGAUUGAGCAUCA` gave a bound/input enrichment of 0.271 ratio.
For `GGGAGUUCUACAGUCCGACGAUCACCGGGAAAACCUGUGUGUUCUCCACCAUAGCUUUGGACUCUCUUGUUCUUGAAAACUUAAGUACCCAGAUUUUGAUCUUGGCUCCUACAAGAGAAAUUGCUGUACAGAUACAUUCUGUUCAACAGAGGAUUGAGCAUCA`, the bound/input enrichment was 0.114 ratio.
For `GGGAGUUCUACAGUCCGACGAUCUCUGUCAGAUUGCUUUCAGGGAUCAGGGAAGGUCUGUAGGCAGAAGGUAUGAUGGUGCCCUAGCAGAGUAUGAAACCUUACUCAUUACAGUAAUUAAUUAGGGAAGCAGCCGCAGGCCGUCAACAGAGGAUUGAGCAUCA`, the bound/input enrichment was 1.17 ratio.
